Published values gathered from unrelated publications.
Each line is one published result; not all experiments were run side by side. ± marks the error that the study gave.

| SMILES | assay | system | conditions | how to read | endpoint | value |
| --- | --- | --- | --- | --- | --- | --- |
| CCNC(=O)C1OC(n2cnc3c(NC(CC)CC)nc(NCCNC(=O)Nc4ccncc4)nc32)C(O)C1O (centres unmarked) | IAM chromatography | – | pH 7.4 | – | log kIAM | 2.08 |
| COc1cc(OC)cc(C2=C3C(C)=C(I)C(/C=C/c4cccs4)=[N+]3[B-](F)(F)n3c(/C=C/c4cccs4)c(I)c(C)c32)c1 | – | THF | – | – | log molar absorptivity | 4.6 M⁻¹ cm⁻¹ |
| CCNC(=O)C1OC(n2cnc3c(NCC(c4ccccc4)c4ccccc4)nc(NCCNC(=O)Nc4ccncc4)nc32)C(O)C1O (centres unmarked) | IAM chromatography | – | pH 7.4 | – | log kIAM | 2.56 |
| COc1cc(OC)cc(C2=C3C(C)=C(I)C(C)=[N+]3[B-](F)(F)n3c(/C=C/c4c[nH]c5ccccc45)c(I)c(C)c32)c1 | – | DMSO | – | – | log molar absorptivity | 4.47 M⁻¹ cm⁻¹ |
| Oc1cc2nc(c1)CNCc1cc(O)cc(n1)CNC2 | potentiometric titration | 0.15 M NaCl | 298 K, protonation constant | – | log K3 | 5.25 |
| COCCOCCOCCOc1ccc(/C=C/C2=[N+]3C(=C(c4cc(OC)cc(OC)c4)c4c(C)c(I)c(/C=C/c5ccc(OCCOCCOCCOC)cc5)n4[B-]3(F)F)C(C)=C2I)cc1 | – | dichloromethane | – | – | log molar absorptivity | 4.75 M⁻¹ cm⁻¹ |
| Oc1ccc2nc1CNCCNCCNC2 | pH-potentiometric titration | – | protonation constant, I 0.15 M NaCl, 298 K | – | log K4 | 2.17 |
| [Cl][Pd-2]1([Cl])[N+](=Cc2ccc[nH]2)Cc2cccc[n+]21 | shake-flask | n-octanol/water | – | – | log P | 1.269 ± 0.004 |
| COc1cc(OC)cc(C2=C3C(C)=C(I)C(/C=C/c4c[nH]c5ccc([N+](=O)[O-])cc45)=[N+]3[B-](F)(F)n3c(/C=C/c4c[nH]c5ccc([N+](=O)[O-])cc45)c(I)c(C)c32)c1 | – | dichloromethane | – | – | log molar absorptivity | 4.45 M⁻¹ cm⁻¹ |
| Br.Br.Br.O=c1c(O)cccn1CCN1CCN(CCn2cccc(O)c2=O)CCN(CCn2cccc(O)c2=O)CC1 | spectrophotometric titration | – | 25 °C, ligand protonation, ionic strength 0.10 M | – | log Ka1 | -3.79 ± 0.07 |
| CC[C@@H]1CN(CC(=O)[O-])[C@H](CC)CN[C@H](CC)CN(CC(=O)[O-])[C@H](CC)CN1.[Mn+2] | – | 0.1 M KCl | 25 °C | – | log K(MnL) | 17.1 |
| C[O][Pt-2]([NH3+])([NH3+])([Cl])([Cl])[O]C(=O)CCC(=O)OCCO | RP-HPLC, C18 column | methanol/aqueous formic acid | 25 °C, extrapolated to 100% water | – | log kw | 0.22 ± 0.01 |
| COc1ccc(-c2cc(=O)c3c(OC)c(O)c(OC)cc3o2)cc1 | spectrophotometric titration | methanol/water 80/20 w/w | 25.0 °C, ionic strength 0.1 M, 6-OH group | – | log protonation constant | 10.1 |
| Br.Br.O=c1c(O)cccn1CCN1CCN(CCn2cccc(O)c2=O)CC1 | spectrophotometric titration | – | 25 °C, ligand protonation, ionic strength 0.10 M | – | log Ka1 | -3.7 ± 0.1 |
| c1ccc(COc2cc3nc(c2)CNCCNCCNC3)cc1 | pH-potentiometric titration | – | 298 K, I 0.15 M NaCl | – | log K2 minus log K3 | 5.41 |
| COc1cc(/C=N/N2C(=O)c3ccccc3NC2c2cc(OC)c(O)c([N+](=O)[O-])c2)cc([N+](=O)[O-])c1O (centres unmarked) | RP-HPLC | – | – | – | log k | 0.447 |
| COc1cc(-c2nc3ccccc3s2)cc(CN2CCN(CC(=O)O)CCN(CC(=O)O)CC2)c1O | – | octanol/water | 64Cu complex | – | log D | -0.68 ± 0.1 |
| CCNC(=O)C1OC(n2cnc3c(N)nc(C(=O)NCCNC(=O)NC4CCN(c5ccccn5)CC4)nc32)C(O)C1O (centres unmarked) | IAM chromatography | – | pH 7.4 | – | log kIAM | 0.86 |
| COc1cc2oc(-c3ccc(C(F)(F)F)cc3F)cc(=O)c2c(O)c1O | spectrophotometric titration | methanol-water | pH 7.4, 25.0 °C, added: Fe(III)-NTA | – | log stability constant | 5.7 |
| O=C(/C=C/c1ccc(O)c(O)c1)NCCCCCCCC[P+](c1ccccc1)(c1ccccc1)c1ccccc1 | derivative spectrophotometry | DMPC membranes | pH 7.4 | – | log Kd | 3.34 ± 0.02 |
| COc1cc(OC)cc(C2=C3C(C)=C(I)C(/C=C/c4c[nH]c5ccccc45)=[N+]3[B-](F)(F)n3c(/C=C/c4c[nH]c5ccccc45)c(I)c(C)c32)c1 | – | THF | – | – | log molar absorptivity | 4.62 M⁻¹ cm⁻¹ |
| NC(=O)CN1CCNC(=O)c2cccc(n2)C(=O)NCCN(CC(N)=O)CCN(CC(N)=O)CC1 | potentiometric titration | water, 0.1 M KNO3 | 25.0 °C, species HL | – | log K (stepwise protonation) | 7 |

| SMILES | assay | system | conditions | how to read | endpoint | value |
| --- | --- | --- | --- | --- | --- | --- |
| CCNC(=O)C1OC(n2cnc3c(N)nc(NCCNC(=O)Nc4ccncc4)nc32)C(O)C1O (centres unmarked) | IAM chromatography | – | pH 7.4 | – | log kIAM | 0.51 |
| COC(=O)c1cc(NC(=O)[C@H](CCCCN)NC(=O)c2cc(NC(=O)[C@H](CCCCN)NC(=O)c3cc(NC(=O)[C@H](CCCCN)NC(=O)c4cc(NC(=O)[C@@H](N)CCCCN)ccc4OC)ccc3OC)ccc2OC)ccc1OC | UV-vis λmax shift | TBS | pH 7.4, monomer-hexamer, K in M^-5 | – | log association constant | 17.9 |
| COc1cc2oc(-c3ccc(F)cc3)cc(=O)c2c(O)c1O | spectrophotometric titration | methanol/water 80/20 w/w | 25.0 °C, ionic strength 0.1 M, 6-OH group | – | log protonation constant | 9.87 |
| FC(F)(F)c1ccnc(-c2cc(C(F)(F)F)ccn2)c1.FC(F)(F)c1ccnc(-c2cc(C(F)(F)F)ccn2)c1.[Cl-].[Cl-].[Ru+2].c1cnc2c(c1)c1nc[nH]c1c1cccnc12 | shake-flask | 1-octanol/phosphate buffer | pH 7.4, chloride salt | – | log D octanol/water | negative |
| NCC(=O)N1CCC[C@H]1C(=O)N1C[C@H](O)C[C@H]1C(=O)O | potentiometric titration | – | 25 °C, MAH-2 complex, added: Fe(III) | – | log beta | 7.99 |
| O=C1c2ccccc2NC(c2ccccc2O)N1/N=C/c1ccccc1O (centres unmarked) | RP-HPLC | – | – | – | log k | 0.315 |
| O=C(O)[C@@H]1C[C@@H](O)CN1C(=O)[C@@H]1CCCN1 | potentiometric titration | – | 40 °C, MA2 complex, added: Fe(III) | – | log beta | 23.7 |
| C[O][Pt-2]1([Cl])([Cl])([O]C(=O)CCC(=O)O)[NH2+]CC[N+]1(C)C | RP-HPLC, C18 column | methanol/aqueous formic acid | 25 °C, extrapolated to 100% water | – | log kw | 1 ± 0.01 |
| COc1cc(OC)cc(C2=C3C(C)=C(I)C(C)=[N+]3[B-](F)(F)n3c(/C=C/c4c[nH]c5ccc([N+](=O)[O-])cc45)c(I)c(C)c32)c1 | – | dichloromethane | – | – | log molar absorptivity | 4.41 M⁻¹ cm⁻¹ |
| CCCCCCC(=O)C(=O)C(O)CO (centres unmarked) | – | – | concentration not given | reference: isobutyl AI-2 | log air-water partition coefficient change | 0.63 |
| COc1ccc(NC(=O)[C@H](CCCCN)NC(=O)c2cc(NC(=O)[C@H](CCCCN)NC(=O)c3cc(NC(=O)[C@H](CCCCN)NC(=O)c4cc(NC(=O)[C@@H](N)CCCCN)ccc4OC)ccc3OC)ccc2OC)cc1C(N)=O | UV-vis λmax shift | Tris 50 mM | pH 7.4, monomer-hexamer global fit, added: NaCl 0.5 M | – | log association constant | 24.1 |
| O=c1c(O)cccn1CCCN1CCN(CCCn2cccc(O)c2=O)CC1 | spectrophotometric titration | – | 25 °C, ligand protonation, ionic strength 0.10 M | – | log Ka1 | -3.8 ± 0.1 |
| COc1ccc(NC(=O)[C@H](CCCCN)NC(=O)c2cc(NC(=O)[C@H](CCCCN)NC(=O)c3cc(NC(=O)[C@H](CCCCN)NC(=O)c4cc(NC(C)=O)ccc4OC)ccc3OC)ccc2OC)cc1C(N)=O | UV-vis λmax shift | TBS | pH 7.4, monomer-hexamer, K in M^-5 | – | log association constant | 21.5 |
| Oc1cccc(-c2cccc(O)n2)n1.[Cl-].[Cl-].[Ru+2].c1cnc2c(c1)ccc1cccnc12.c1cnc2c(c1)ccc1cccnc12 | – | octanol/buffer | acidic form | – | log D | 0.2 |
| COCCOCCOCCOc1ccc(/C=C/c2c(I)c(C)c3n2[B-](F)(F)[N+]2=C(C)C(I)=C(C)C2=C3c2cc(OC)cc(OC)c2)cc1 | – | THF | – | – | log molar absorptivity | 4.7 M⁻¹ cm⁻¹ |
| C[O][Pt-2]1([Cl])([Cl])([O]C(=O)CCC(=O)OCCO)[NH2+]CC[N+]1(C)C | RP-HPLC, C18 column | methanol/aqueous formic acid | 25 °C, extrapolated to 100% water | – | log kw | 1.37 ± 0.06 |
| COc1cc(/C=N/N2C(=O)c3ccccc3NC2c2cc(OC)c(O)c(OC)c2)cc(OC)c1O (centres unmarked) | RP-HPLC | – | – | – | log k | -0.605 |
| CC[P+](c1ccccc1)(c1ccccc1)c1ccccc1 | shake-flask, HPLC | 1-octanol/water | – | – | log P | -1.36 ± 0.09 |
| COc1cc(OC)cc(C2=C3C(C)=C(I)C(C)=[N+]3[B-](F)(F)n3c(/C=C/c4cccs4)c(I)c(C)c32)c1 | – | THF | – | – | log molar absorptivity | 4.06 M⁻¹ cm⁻¹ |
| Oc1cccc(-c2cccc(O)n2)n1.[Cl-].[Cl-].[Ru+2].c1cnc2c(c1)c1c(c3cccnc32)OCCO1.c1cnc2c(c1)c1c(c3cccnc32)OCCO1 | – | octanol/buffer | acidic form | – | log D | 0.9 |
| CCCCCCCC[P+](c1cc(C)cc(C)c1)(c1cc(C)cc(C)c1)c1cc(C)cc(C)c1 | shake-flask, HPLC | 1-octanol/water | – | – | log P | 2.25 ± 0.05 |
| O=C(O)CN(CCNC(=O)c1cccc(C(=O)NCCN(CC(=O)O)CC(=O)O)n1)CC(=O)O | potentiometric titration | water, 0.1 M KNO3 | 25.0 °C, complex species LPb, added: Pb(NO3)2 | – | log β (Pb2+ complex stability) | 12.9 |

A few entries again:
| SMILES | assay | system | conditions | how to read | endpoint | value |
| --- | --- | --- | --- | --- | --- | --- |
| COc1cc(-c2nc3ccccc3s2)cc(CN2CCN(CC(=O)O)CCN(CC(=O)O)CC2)c1O | – | octanol/water | 64Cu complex | – | log D | -0.68 ± 0.1 |
| COCCOCCOCCOc1ccc(/C=C/C2=[N+]3C(=C(c4cc(OC)cc(OC)c4)c4c(C)c(I)c(/C=C/c5ccc(OCCOCCOCCOC)cc5)n4[B-]3(F)F)C(C)=C2I)cc1 | – | dichloromethane | – | – | log molar absorptivity | 4.75 M⁻¹ cm⁻¹ |
| C[O][Pt-2]1([Cl])([Cl])([O]C(=O)CCC(=O)O)[NH2+]CC[N+]1(C)C | RP-HPLC, C18 column | methanol/aqueous formic acid | 25 °C, extrapolated to 100% water | – | log kw | 1 ± 0.01 |
| CCNC(=O)C1OC(n2cnc3c(N)nc(C(=O)NCCNC(=O)NC4CCN(c5ccccn5)CC4)nc32)C(O)C1O (centres unmarked) | IAM chromatography | – | pH 7.4 | – | log kIAM | 0.86 |
